Assay results gathered from unrelated publications.
Each numbered part is a random draw from the data of one study; scales do not carry over between parts.

Sample 1
Target: Transcriptional repressor CTCF (CTCF, Homo sapiens, UniProt P49711, residues 1-727, full length assumed)
Sequence of UniProt P49711 (whole entry, looked up): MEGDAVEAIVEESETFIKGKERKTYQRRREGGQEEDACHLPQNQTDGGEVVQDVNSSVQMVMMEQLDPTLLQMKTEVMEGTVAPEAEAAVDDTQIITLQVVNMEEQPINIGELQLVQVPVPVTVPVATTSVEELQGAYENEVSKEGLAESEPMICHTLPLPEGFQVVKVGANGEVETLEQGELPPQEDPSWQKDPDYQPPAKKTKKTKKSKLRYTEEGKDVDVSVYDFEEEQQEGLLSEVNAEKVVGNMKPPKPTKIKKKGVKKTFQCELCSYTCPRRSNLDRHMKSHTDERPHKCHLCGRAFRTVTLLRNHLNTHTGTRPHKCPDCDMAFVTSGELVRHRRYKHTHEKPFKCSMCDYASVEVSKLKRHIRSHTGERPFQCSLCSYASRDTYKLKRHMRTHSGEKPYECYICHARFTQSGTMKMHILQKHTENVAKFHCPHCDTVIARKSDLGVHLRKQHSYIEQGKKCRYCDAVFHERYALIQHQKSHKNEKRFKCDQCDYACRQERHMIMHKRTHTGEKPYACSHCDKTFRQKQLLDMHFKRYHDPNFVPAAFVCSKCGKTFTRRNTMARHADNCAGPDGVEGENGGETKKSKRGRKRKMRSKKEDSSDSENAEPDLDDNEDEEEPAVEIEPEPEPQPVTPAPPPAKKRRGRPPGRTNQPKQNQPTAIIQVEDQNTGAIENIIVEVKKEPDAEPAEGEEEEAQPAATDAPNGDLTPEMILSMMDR
Method: protein-binding microarray
Form: double-stranded DNA, one strand shown
Sample: in vitro
Concentration: not given
Setting: k-mer, scored over probes, only values ≥0.25
Reading: higher = stronger binding
Measurement: E-score
Sequence = ATATGAAT; result = 0.26
Sequence = ATATTACA; result = 0.36
Sequence = AAGCGCTA; result = 0.252
Sequence = CGAAATAC; result = 0.296
Sequence = ATAATTCA; result = 0.342
Sequence = GTCTAATA; result = 0.264
Sequence = CCATATAC; result = 0.276
Sequence = ATATGATA; result = 0.335
Sequence = ATAGTAAA; result = 0.267
Sequence = CATTCATA; result = 0.37
Sequence = CGCGCGCC; result = 0.309
Sequence = AACATTAC; result = 0.295
Sequence = CGCATACG; result = 0.292
Sequence = CGGCGCAA; result = 0.308
Sequence = AGTATTAC; result = 0.29
Sequence = CATTTTTA; result = 0.306
Sequence = ATTATGGA; result = 0.267
Sequence = AAATAACA; result = 0.28
Sequence = ATACCTAG; result = 0.255
Sequence = ATTCACAA; result = 0.265
Sequence = CCGCATAA; result = 0.296
Sequence = TAATGTAA; result = 0.296
Sequence = TATATAAA; result = 0.386
Sequence = TGTCATAA; result = 0.264

Sample 2
Target: Fragile X messenger ribonucleoprotein 1, C-terminal low-complexity region (Fmr1, Mus musculus, UniProt P35922)
Method: RNA Bind-n-Seq
Form: RNA
Sample: in vitro
Concentration: 200 nM
Setting: whole 134-nt RNA, ends assumed
With: 150 mM LiCl
Baseline: input library
Reading: higher = stronger binding
Measurement: log2 enrichment
Library: 7-deaza-guanosine replaces G
Shared flanks, not repeated: GGGAGUUCUACAGUCCGACGAUC … UGGAAUUCUCGGGUGUCAAGG
Sequence = CCUGUGCUACACAUCGUAUGUACCGAAUCGGGAAAAAAGGGGAAAAAAGGAAAAAAGGGGAAAGUAUUAUGUUACGCCGUUCGGAUCUGC; result = 0.0329
Sequence = UGGGAGGUGGAUUUUGUUUAUUUUUUUAGCUCAUUUCCAGGGGUGGGAAUUUUUUUUUAAUAUGUGUCAUGAAUAAAGUUGUUUUUGAAU; result = 0.447
Sequence = CUGUGCUACACAUCGUAUGUACCGAAUCGGGGAAAAAAAGGGGAAAAAAAGGGGAAAGGGGAAAGUAUUAUGUUACGCCGUUCGGAUCUG; result = 0.948
Sequence = CUCAAGUCCUGUGCUACACAUCGUAUGUACCGAAUCGGGGCGGGCGGGCGGGGAAAGUAUUAUGUUACGCCGUUCGGAUCUGCACUUCCA; result = -0.259
Sequence = CACAGACAACACGCACCCACACAGACACAGAGGGAAGGGGUUGGGAUGGGGACAGGGUCCACAGCAGGGCGGGGUAGGACCCCAGCCCCU; result = 0.153
Sequence = GUCCUGUGCUACACAUCGUAUGUACCGAAUCGGGGUUUUUUUGGGGUUUGGGGAGGGGAAAGUAUUAUGUUACGCCGUUCGGAUCUGCAC; result = -0.544
Sequence = UGAACCUUCCAAUAGCAACCAAGAAAUAAACUCUGAUGACAGACGACCCCAAUGGAGACGAGAAGACCGAAUUCCUUACCAAGACAGAGA; result = 1.09
Sequence = UCCUGUGCUACACAUCGUAUGUACCGAAUCGGCCCCCCCGGCCCCCCCGGCCCCCCCGGGAAAGUAUUAUGUUACGCCGUUCGGAUCUGC; result = 1.07

Sample 3
Target: Histone acetyltransferase KAT6A, winged helix 2, GST fusion (KAT6A, Homo sapiens, UniProt Q92794, residues 85-181)
Method: protein binding microarray
Form: double-stranded DNA, one strand shown
Sample: in vitro
Concentration: not given
Setting: 8-mer, flanks averaged, mean of 2 arrays, mostly near background
Baseline: not given
Reading: higher = stronger binding
Measurement: E-score
Residues (chain): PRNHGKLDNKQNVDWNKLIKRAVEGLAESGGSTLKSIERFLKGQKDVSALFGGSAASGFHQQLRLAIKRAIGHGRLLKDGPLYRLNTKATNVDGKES
Sequence = TGACCAAA; result = 0.0176
Sequence = CAATGATG; result = -0.0779
Sequence = CCGCGCAA; result = -0.0262
Sequence = CAATGAGC; result = -0.00165
Sequence = GGAGCCGA; result = 0.122
Sequence = CTTGGCTA; result = -0.03
Sequence = CCCACGGC; result = 0.215
Sequence = CTACGGAG; result = 0.0243
Sequence = AGACGCGG; result = 0.077
Sequence = ATCACTAA; result = -0.0608
Sequence = GCAGTTTA; result = 0.079
Sequence = TACGCCTA; result = -0.0203
Sequence = TCAGCGCA; result = -0.0101
Sequence = CCCTGCCG; result = 0.157
Sequence = ACAAGGGG; result = -0.0941
Sequence = CGGGACGA; result = 0.159
Sequence = CCTAGGGA; result = 0.0398
Sequence = ACAGCTGT; result = -0.095
Sequence = ACTTACTA; result = -0.26
Sequence = CACGATGG; result = -0.148
Sequence = GTGCACCA; result = -0.0189
Sequence = AGGCCTGC; result = 0.0512
Sequence = TGACGCAA; result = -0.0536
Sequence = ATCGGATG; result = 0.00602
Sequence = GCCAATCC; result = 0.048

Sample 4
Target: RNA binding protein fox-1 homolog 2, RRM domain, GST-SBP tag (RBFOX2, Homo sapiens, UniProt O43251-10, residues 100-194)
Method: RNA Bind-n-Seq
Form: RNA
Sample: in vitro
Concentration: 365 nM
Setting: natural RNA segment, single round, ends assumed
Baseline: no-protein control
Reading: higher = stronger binding
Measurement: RBNS enrichment (R)
Shared flanks, not repeated: GGGAGUUCUACAGUCCGACGAUC … UGGAAUUCUCGGGUGCCAA
Construct (chain): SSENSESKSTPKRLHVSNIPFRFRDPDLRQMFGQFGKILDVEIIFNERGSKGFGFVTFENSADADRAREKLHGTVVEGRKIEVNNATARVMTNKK
Sequence = AAAGAUGCUUUAAAUUAAAUUUGGGUAAUAUUAAACCACAUGUUUACAAUACCAAAAUCCACAAAAGCUACUUUAUUUUCAAAUAUGACAGAUAGUUUCCAGAGUACGCC; result = 0.39
Sequence = AUUUAAGUUAUUUUAAUUUAUUGUGAAUCCGAAAACUAGAUUUAGUUGGUCAGAAUCUGUAAAGUACUAGCACCUAUCCCUUUGGAGCAGCAAUCAAAUGAUUUAGUCUU; result = 0.297
Sequence = UUUAUAGUUACACAAGGACUUCUCCCAGCUGACCCUCAGGAUGCCCCAAGUCAGGAAGACCAUUAAGAAUAGGAGGAGAGGGCUCUGCCUCAACUUUCCUAGGAAAGAGC; result = 0.236
Sequence = GGAUGCCACUCUCCCACUUGUAAUUCUCAACGCAAAACAAGUGGAACUGAUUUUACAAAGAUAGAGAAACAGCACAAUCAAUUCCAAAUGGCAUGCGAUGGUCUGCAGGU; result = 1.29
Sequence = AAAGGAGGUGAGAGUUUAGUCCCUUCUGCAGUUUUCUCCAAGCUGUGUCCUGUGAAUUUCAACCCUUGGAGCCUAAGAAAACCCUAGGAAGAUGAUGUUAAUUUGCUGUC; result = 0.393
Sequence = AUAUUUGCAAAUUGCCAUCUAUUGAAAUUCUCGUCACACUACAUAGACAUAAUUGUUAUCUCCUUUUGGCUUAUGUGAUUUUCUGUUUACAAGUAGAAUAGCCAAUUAUU; result = 0.436
Sequence = UAUAGUGCCCAGUCUCUCUCUCCUAUUUUUUAUUUUUUUAAGCUAGACUCAAGGGUGUGUGGUAUUUCGCUUUUUAGUACAUUACUUUACUGGAAGCUUAAAAUUUGCUU; result = 0.575
Sequence = GUCUUCAUGGUUUGCGUUCUGUACAUUUUCAAGCCCUGGUGAUGAUACGCUCAUAUGCACUUAGGAGUGAGCUUUGUUGUACAGUCUGUCCACGGGGUCGAUGCUGUUAU; result = 0.662

Excerpt of the above (sample 1):
Sequence = TAATGTAA; result = 0.296
Sequence = ATAATTCA; result = 0.342
Sequence = CATTTTTA; result = 0.306
Sequence = ATATGATA; result = 0.335
Sequence = AAATAACA; result = 0.28
Sequence = ATTCACAA; result = 0.265
